Measurements gathered from unrelated publications.
Lines come from different studies, so protocols differ.

CN(Cc1cc(C2CC2)on1)C(=O)c1cccc(-c2ccc3c(c2)CCO3)c1 — reaction rate (acetyl-CoA synthetase 1 (Aspergillus fumigatus); enzyme activity, inhibitor, coupled pyrophosphate; 125 µM; higher is more activity): 0.000851 a.u.
c1ccc(-c2n[nH]cc2-c2ccnc3ccccc23)nc1 — log2 fold change (TPK1 (Candida albicans); kinase binding, MIB/MS competition; Candida albicans lysate; 1 µM; baseline: DMSO): -0.13
N=C(c1ccc([N+](=O)[O-])o1)N1CCC(NC(=O)c2cc(-c3ccc(F)cc3F)on2)(c2nc3ccccc3[nH]2)CC1 — IFNβ secretion (STING pathway; inhibitor; human CD14+ monocytes; 2.5 µM, added: diABZI): inhibited
C=CC(=O)N1[C@@H](c2ccc3c(c2)OCO3)c2[nH]c3ccccc3c2C[C@H]1C(=O)N1CCN(C)CC1 — relative co-enrichment (human cyclin E1 wild type-3xFLAG:CDK2; co-IP with TMT proteomics, refers to: RPSA; concentration not given, P08865; baseline: wild type DMSO): 97%
N=C(NCC[C@H](NC(=O)c1noc(-c2cc(F)ccc2F)n1)c1nc2ccccc2[nH]1)c1ccc([N+](=O)[O-])o1 — IFNβ secretion (STING pathway; inhibitor, ELISA; mouse iBMDM; concentration not given, 24 h, added: diABZI 500 nM): inhibited
C=CC(=O)Nc1cccc(Cn2ncc3cnc(Nc4cnn(CCOC)c4)nc32)c1 — percent of control (CIT human; binding, KINOMEscan; 100 nM; lower = stronger binding): 80%
Nc1ncc(-c2cc(-c3cnn(CC(F)(F)F)c3)ncc2F)nc1C(=O)NC1CNCC(F)C1 (centres unmarked) — remaining binding (ABL2; KINOMEscan; 1 µM; baseline: DMSO control): 82%
Cc1c(C)c2cccnc2c2ncccc12.O=[N+]([O-])[O-].O=c1c(C=NN=C([S-])Nc2ccccc2)coc2ccccc12.[Cu+2] — supercoiled DNA remaining (supercoiled pUC19 DNA; oxidative DNA cleavage; concentration not given, DMSO 10%, added: ascorbic acid): 0%

For quick reference, copied from above:
Nc1ncc(-c2cc(-c3cnn(CC(F)(F)F)c3)ncc2F)nc1C(=O)NC1CNCC(F)C1 (centres unmarked) — remaining binding (ABL2; KINOMEscan; 1 µM; baseline: DMSO control): 82%
